Measurements of several laboratories.
Lines come from different studies, so protocols differ. Numbers after ± are the reported error.

CC[C@H](Nc1ncnc2[nH]cnc12)c1oc2ccccc2c(=O)c1-c1cccc(F)c1  Cmax (patients, Cohort-1, plasma; oral, 400 mg twice daily, added: romidepsin 12 mg/m2): 1540 ± 1610 ng/mL
COc1c(O)cc(C(=O)O)cc1O  Cmax (broiler chickens, serum; oral, in feed, 2000 mg/kg feed, 24 h, wheat diet, no tannins): 100 ± 40 nM
CCNC(=O)[C@@H]1CCCN1C(=O)[C@H](CCCNC(=N)N)NC(=O)[C@H](CC(C)C)NC(=O)[C@@H](CC(C)C)NC(=O)[C@H](Cc1ccc(O)cc1)NC(=O)[C@H](CO)NC(=O)[C@H](Cc1c[nH]c2ccccc12)NC(=O)[C@H](Cc1c[nH]cn1)NC(=O)[C@@H]1CCC(=O)N1  Cmax (healthy female volunteers; subcutaneous, 1 mg single dose): 59.4 ± 9.1 ng/mL
N[C@@H]1c2ccccc2OC12CCN(c1cnc3c(N4CCCc5ncccc54)n[nH]c3n1)CC2  Cmax (advanced metastatic solid tumour patients, plasma; oral, 60 mg once daily, cycle 1 day 15, geometric mean): 850 ng/mL
CCc1nc2c(C)cc(N3CCN(CC(=O)N4CC(O)C4)CC3)cn2c1N(C)c1nc(-c2ccc(F)cc2)c(C#N)s1  Cmax (healthy volunteers, plasma; oral, 1000 mg once daily multiple doses): 20700 ng/mL
C=C(F)C(=O)N1CCN(c2nc(OC[C@@H]3CCCN3C)nc3c2CCN(c2cccc4cccc(Cl)c24)C3)C[C@@H]1CC#N  Cmax (healthy volunteers, plasma; oral, 400 mg twice daily): 1270 ng/mL
CCCCCCCCCCCCCCCC(=O)N[C@@H](CCC(=O)NCCCC[C@@H]1NC(=O)[C@H]([C@@H](C)CC)NC(=O)[C@@H](NC(=O)[C@@H]2CCCN2C(=O)[C@H](Cc2ccccc2)NC(=O)[C@H](Cc2c[nH]cn2)NC(=O)[C@@H](NC(=O)[C@H](CC(=O)O)NC(=O)CC(C)C)[C@@H](C)O)CSSC[C@@H](C(=O)N[C@@H](CCCCN)C(N)=O)NC(=O)CNC(=O)[C@H](CCCCN)NC(=O)[C@H](CO)NC(=O)[C@H](CCCNC(=N)N)NC(=O)[C@@H]2CCCN2C(=O)[C@H](CCC(=O)O)NC(=O)[C@H](Cc2ccccc2)NC1=O)C(=O)O  Cmax (healthy volunteers, plasma; subcutaneous, 10 mg single, lyophilised formulation): 261 ± 64.4 ng/mL
C[C@@H]1CCO[C@H]2Cn3cc(C(=O)NCc4ccc(F)cc4F)c(=O)c(O)c3C(=O)N12  Cmax (population PK, post-hoc; children, 14 to <20 kg, plasma; oral, 15 mg dispersible tablet, steady state, geometric mean): 3390 ng/mL
CC(=O)O[C@@]12CO[C@@H]1C[C@H](O)[C@@]1(C)C(=O)[C@H](O)C3=C(C)[C@@H](OC(=O)[C@H](O)[C@@H](NC(=O)OC(C)(C)C)c4ccccc4)C[C@@](O)([C@@H](OC(=O)c4ccccc4)[C@H]21)C3(C)C  Cmax (patients, plasma; intravenous, 75 mg/m^2, without co-administered drug): 799 ng/mL
CCCCCCCOc1ccc(CCC(N)(CO)CO)cc1C(F)(F)F.Cl  Cmax (healthy men, plasma; oral, 0.25 mg, day 1): 0.15 ng/mL
CCc1nc(C(N)=O)c(Nc2ccc(N3CCC(N4CCN(C)CC4)CC3)c(OC)c2)nc1NC1CCOCC1  Cmax (patients, plasma; oral, 80 mg once daily, cycle 1 day 15, median): 396 ng/mL
N[C@@H](Cc1ccc(O)c(O)c1)C(=O)O  Cmax (Parkinson's disease patients, plasma; oral, low carbidopa Cmax subgroup (<9 µmol/L), median): 5770 nM
Cc1ccc(NC(=O)c2ccc(CN3CCN(C)CC3)cc2)cc1Nc1nccc(-c2cncc(-c3oncc3C)c2)n1  Cmax (Parkinson's disease patients, plasma; oral, 50 mg/day, 7 days, steady state): 2560 ± 564 ng/mL
COc1nnc2ccc(N3CCC(c4ccc(OCCN5CCN(C)C(=O)[C@H]5C)cc4)CC3)nn12  Cmax (patients, plasma; oral, 15 mg twice daily, single dose, monotherapy): 114 nM
C[C@H](NC(=O)/C(C#N)=C/c1cccc(Br)n1)c1ccccc1  Cmax (LC-MS/MS; patients, plasma; oral, 4 mg/kg, cycle 1 day 1): 23.3 ng/mL
CNC(=O)c1cc(Oc2ccc(NC(=O)N(c3ccc(Cl)c(C(F)(F)F)c3)[C@@H]3O[C@H](C(=O)O)[C@@H](O)[C@H](O)[C@H]3O)cc2)ccn1  Cmax (patients, plasma; oral, 400 mg twice daily, steady state, geometric mean, added: rifampin 600 mg oral): 5370 ng/mL
OC[C@H]1O[C@@H](c2ccc(F)c(Cc3cc4ccccc4s3)c2)[C@H](O)[C@@H](O)[C@@H]1O  Cmax (Japanese type 2 diabetes patients, plasma; oral, 50 mg/day, day 14): 1400 ± 273 ng/mL
O=C([O-])CCCCCCCNC(=O)c1ccccc1O.[Na+]  Cmax (healthy postmenopausal women; 300 mg, oral contraceptive alone, geometric mean): 1920 ng/mL
CS(=O)(=O)c1ccc([C@@H](O)[C@@H](CF)NC(=O)C(Cl)Cl)cc1  Cmax (chicken (Arbor Acres), plasma; oral, 20 mg/kg, added: saline pretreatment): 7240 ± 1200 ng/mL
COc1cc(N2CCC(N3CCN(C)CC3)CC2)ccc1Nc1ncc(Cl)c(Nc2ccccc2P(C)(C)=O)n1  Cmax (healthy subjects, plasma; oral, 90 mg, single dose, geometric mean): 353 ng/mL
C[C@H]1[C@@H](O)O[C@@H]2O[C@@]3(C)CC[C@H]4[C@H](C)CC[C@@H]1[C@@]24OO3  Cmax (healthy volunteers, plasma; oral, dose not given, fixed-dose combination): 566 ng/mL
CC(C)c1nc(N(C)S(C)(=O)=O)nc(-c2ccc(F)cc2)c1/C=C/[C@@H](O)C[C@@H](O)CC(=O)O  Cmax (healthy volunteers, plasma; oral, 10 mg, day 8, BCRP probe, added: momelotinib, days 4-8, 200 mg, once daily): 10.5 ng/mL
CC[C@H](C)CCCCC(=O)N[C@@H](CCN)C(=O)N[C@H](C(=O)N[C@@H](CCN)C(=O)N[C@H]1CCNC(=O)[C@H]([C@@H](C)O)NC(=O)[C@H](CCN)NC(=O)[C@H](CCN)NC(=O)[C@H](CC(C)C)NC(=O)[C@@H](Cc2ccccc2)NC(=O)[C@H](CCN)NC1=O)[C@@H](C)O  Cmax (LC-MS/MS; ESKD on long-term intermittent haemodialysis, plasma; intravenous infusion, 0.75 mg/kg single dose over 1 h, arithmetic mean): 2800 ng/mL
CCNC(=O)[C@@H]1CCCN1C(=O)[C@H](CCCNC(=N)N)NC(=O)[C@H](CC(C)C)NC(=O)[C@@H](CC(C)C)NC(=O)[C@H](Cc1ccc(O)cc1)NC(=O)[C@H](CO)NC(=O)[C@H](Cc1c[nH]c2ccccc12)NC(=O)[C@H](Cc1c[nH]cn1)NC(=O)[C@@H]1CCC(=O)N1  Cmax (healthy premenopausal women, plasma; oral, 4 mg twice daily, day 29): 4.8 ± 6.2 ng/mL
C[C@@H](N)C1CCN(S(=O)(=O)c2cccc3cnccc23)CC1  Cmax (healthy volunteers, fasted, plasma; oral, 75 mg): 16.9 ng/mL
C[C@@](Cc1ccc(O)c(O)c1)(NN)C(=O)O  Cmax (Parkinson's disease patients, plasma; oral, high levodopa AUC subgroup (11.5 µmol·h/L), median): 340 nM
C[C@H]1[C@H]2N(C(=O)CN(C)N2C(=O)NCc2ccccc2)[C@@H](Cc2ccc(OP(=O)(O)O)cc2)C(=O)N1Cc1cccc2cccnc12  Cmax (patients, plasma; intravenous infusion, 280 mg/m2 over 4 h, median): 1950 ng/mL
O=C(O)c1cc(O)c(O)c(O)c1  Cmax (broiler chickens, serum; oral, in feed, 2000 mg/kg feed, 24 h, wheat diet with tannins): 400 ± 80 nM
C=CC(=O)NC1CCN(c2ncc3ncnc(Nc4ccc(Oc5ccc6c(c5)ncn6C)c(C)c4)c3n2)CC1  Cmax (healthy male volunteers, plasma; oral, 60 mg, unlabelled tablet): 994 nM
Oc1ccc([C@@H](O)c2cc(-c3ncnc4cc(N5CCOCC5)ccc34)c(F)cc2Cl)nn1  Cmax (geometric mean; healthy volunteers, plasma; oral, 100 mg, high-fat fed tablet): 92.8 ng/mL
O=C(c1cccnc1-c1ccncc1)N1CCC(O)(Cc2ccccc2)CC1  Cmax (healthy Japanese adults, plasma; oral, 100 mg twice daily, day 1): 255 ng/mL
CC(C)n1c(/C=C/C(O)CC(O)CC(=O)O)c(-c2ccc(F)cc2)c2ccccc21 (stereo not drawn)  Cmax (healthy volunteers; oral, 20 mg, alone, control phase): 176 ± 149 ng/mL
OC[C@H]1O[C@@H](c2cc(Cc3ccc(C4CC4)cc3)c(Cl)c3c2CCO3)[C@H](O)[C@@H](O)[C@@H]1O  Cmax (healthy Korean adults, fasted, plasma; oral, 0.3 mg single dose, fixed-dose combination tablet, added: co-administered drug 50 mg): 4.74 ± 1.2 ng/mL
